Published values of several laboratories.
Parts stem from different laboratories: compare values within a part only.
UniProt P00519, sequence (whole entry, unmodified, looked up): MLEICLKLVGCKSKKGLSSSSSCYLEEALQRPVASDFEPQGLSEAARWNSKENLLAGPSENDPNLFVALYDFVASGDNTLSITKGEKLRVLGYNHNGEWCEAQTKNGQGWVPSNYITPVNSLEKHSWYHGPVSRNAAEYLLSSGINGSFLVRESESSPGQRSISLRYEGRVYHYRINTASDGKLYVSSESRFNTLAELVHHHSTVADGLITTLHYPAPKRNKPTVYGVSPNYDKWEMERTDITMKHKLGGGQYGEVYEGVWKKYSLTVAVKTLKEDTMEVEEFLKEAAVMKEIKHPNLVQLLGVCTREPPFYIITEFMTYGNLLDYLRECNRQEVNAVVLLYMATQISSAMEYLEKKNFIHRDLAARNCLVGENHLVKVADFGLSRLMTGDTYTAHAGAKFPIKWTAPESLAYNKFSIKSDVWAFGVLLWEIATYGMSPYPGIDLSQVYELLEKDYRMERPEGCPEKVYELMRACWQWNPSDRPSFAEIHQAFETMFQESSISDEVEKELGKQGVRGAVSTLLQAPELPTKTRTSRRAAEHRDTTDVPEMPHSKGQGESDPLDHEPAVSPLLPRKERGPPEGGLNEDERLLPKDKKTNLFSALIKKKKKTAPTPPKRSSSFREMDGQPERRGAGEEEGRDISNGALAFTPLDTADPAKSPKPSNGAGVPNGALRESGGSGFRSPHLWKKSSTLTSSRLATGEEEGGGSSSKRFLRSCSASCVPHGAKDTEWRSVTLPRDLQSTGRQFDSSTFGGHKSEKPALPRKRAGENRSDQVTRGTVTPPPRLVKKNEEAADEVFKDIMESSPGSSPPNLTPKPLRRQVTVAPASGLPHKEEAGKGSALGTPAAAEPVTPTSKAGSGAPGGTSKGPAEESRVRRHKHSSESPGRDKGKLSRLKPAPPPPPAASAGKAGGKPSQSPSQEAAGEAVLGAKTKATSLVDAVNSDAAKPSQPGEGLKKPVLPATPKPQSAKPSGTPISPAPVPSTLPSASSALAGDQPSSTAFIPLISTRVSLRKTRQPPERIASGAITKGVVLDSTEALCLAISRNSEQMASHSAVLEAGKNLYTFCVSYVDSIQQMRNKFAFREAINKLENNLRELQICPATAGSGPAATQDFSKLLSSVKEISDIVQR
UniProt P45983, sequence (whole entry, looked up): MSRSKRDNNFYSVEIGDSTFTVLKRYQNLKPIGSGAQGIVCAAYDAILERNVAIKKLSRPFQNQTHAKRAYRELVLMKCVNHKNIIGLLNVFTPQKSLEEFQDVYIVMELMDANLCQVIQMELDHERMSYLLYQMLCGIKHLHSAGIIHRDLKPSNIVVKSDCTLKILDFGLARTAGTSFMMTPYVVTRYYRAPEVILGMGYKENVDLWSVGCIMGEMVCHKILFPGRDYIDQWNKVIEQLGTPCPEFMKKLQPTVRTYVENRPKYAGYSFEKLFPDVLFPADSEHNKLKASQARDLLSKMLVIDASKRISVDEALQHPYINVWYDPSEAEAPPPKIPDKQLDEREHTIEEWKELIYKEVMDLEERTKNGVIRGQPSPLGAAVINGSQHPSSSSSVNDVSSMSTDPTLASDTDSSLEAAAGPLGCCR
UniProt Q9BUB5, sequence (whole entry, looked up): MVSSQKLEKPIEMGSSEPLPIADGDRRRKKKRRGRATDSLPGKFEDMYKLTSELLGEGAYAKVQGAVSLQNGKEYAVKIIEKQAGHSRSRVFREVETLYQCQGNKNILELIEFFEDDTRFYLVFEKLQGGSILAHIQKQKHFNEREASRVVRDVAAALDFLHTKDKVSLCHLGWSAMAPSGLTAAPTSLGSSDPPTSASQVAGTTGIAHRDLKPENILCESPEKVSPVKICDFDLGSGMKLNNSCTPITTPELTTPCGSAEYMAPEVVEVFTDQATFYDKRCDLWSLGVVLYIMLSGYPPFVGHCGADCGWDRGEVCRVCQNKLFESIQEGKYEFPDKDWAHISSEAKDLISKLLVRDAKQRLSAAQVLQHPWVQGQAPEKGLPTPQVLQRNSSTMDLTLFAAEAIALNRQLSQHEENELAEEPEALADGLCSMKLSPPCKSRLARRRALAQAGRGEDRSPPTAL
UniProt Q96J92, sequence (whole entry, looked up): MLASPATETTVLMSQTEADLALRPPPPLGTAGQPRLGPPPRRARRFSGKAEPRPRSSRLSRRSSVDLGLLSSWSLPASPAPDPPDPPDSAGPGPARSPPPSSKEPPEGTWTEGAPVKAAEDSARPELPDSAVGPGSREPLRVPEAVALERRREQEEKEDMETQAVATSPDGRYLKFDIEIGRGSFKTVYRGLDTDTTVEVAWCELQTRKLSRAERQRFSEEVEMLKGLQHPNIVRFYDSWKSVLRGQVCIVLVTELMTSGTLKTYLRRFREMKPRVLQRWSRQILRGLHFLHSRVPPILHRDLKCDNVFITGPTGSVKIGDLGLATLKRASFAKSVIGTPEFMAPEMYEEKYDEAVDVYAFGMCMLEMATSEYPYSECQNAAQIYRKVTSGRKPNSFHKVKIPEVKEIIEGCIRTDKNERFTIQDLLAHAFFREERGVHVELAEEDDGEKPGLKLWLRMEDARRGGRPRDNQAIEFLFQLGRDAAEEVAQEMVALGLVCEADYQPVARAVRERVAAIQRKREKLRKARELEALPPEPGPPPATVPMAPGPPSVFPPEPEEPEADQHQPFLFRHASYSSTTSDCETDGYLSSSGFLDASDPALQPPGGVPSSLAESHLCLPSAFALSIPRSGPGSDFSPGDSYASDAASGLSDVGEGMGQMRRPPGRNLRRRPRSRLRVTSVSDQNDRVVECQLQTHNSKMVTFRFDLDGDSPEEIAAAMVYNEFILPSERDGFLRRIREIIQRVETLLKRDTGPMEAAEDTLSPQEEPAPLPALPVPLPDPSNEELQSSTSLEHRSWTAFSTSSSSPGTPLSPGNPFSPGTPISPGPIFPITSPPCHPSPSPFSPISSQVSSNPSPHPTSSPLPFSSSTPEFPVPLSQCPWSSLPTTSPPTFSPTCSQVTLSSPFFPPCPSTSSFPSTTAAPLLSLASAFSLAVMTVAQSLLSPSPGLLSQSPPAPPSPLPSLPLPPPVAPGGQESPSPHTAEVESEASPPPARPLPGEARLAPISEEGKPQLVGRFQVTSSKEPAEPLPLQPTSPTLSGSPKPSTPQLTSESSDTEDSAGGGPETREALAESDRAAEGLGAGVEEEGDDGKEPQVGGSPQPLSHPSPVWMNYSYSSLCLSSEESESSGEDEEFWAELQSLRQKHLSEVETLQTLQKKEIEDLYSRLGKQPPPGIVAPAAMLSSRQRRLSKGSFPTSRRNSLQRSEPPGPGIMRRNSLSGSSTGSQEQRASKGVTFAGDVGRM
UniProt P27448, sequence (whole entry, looked up): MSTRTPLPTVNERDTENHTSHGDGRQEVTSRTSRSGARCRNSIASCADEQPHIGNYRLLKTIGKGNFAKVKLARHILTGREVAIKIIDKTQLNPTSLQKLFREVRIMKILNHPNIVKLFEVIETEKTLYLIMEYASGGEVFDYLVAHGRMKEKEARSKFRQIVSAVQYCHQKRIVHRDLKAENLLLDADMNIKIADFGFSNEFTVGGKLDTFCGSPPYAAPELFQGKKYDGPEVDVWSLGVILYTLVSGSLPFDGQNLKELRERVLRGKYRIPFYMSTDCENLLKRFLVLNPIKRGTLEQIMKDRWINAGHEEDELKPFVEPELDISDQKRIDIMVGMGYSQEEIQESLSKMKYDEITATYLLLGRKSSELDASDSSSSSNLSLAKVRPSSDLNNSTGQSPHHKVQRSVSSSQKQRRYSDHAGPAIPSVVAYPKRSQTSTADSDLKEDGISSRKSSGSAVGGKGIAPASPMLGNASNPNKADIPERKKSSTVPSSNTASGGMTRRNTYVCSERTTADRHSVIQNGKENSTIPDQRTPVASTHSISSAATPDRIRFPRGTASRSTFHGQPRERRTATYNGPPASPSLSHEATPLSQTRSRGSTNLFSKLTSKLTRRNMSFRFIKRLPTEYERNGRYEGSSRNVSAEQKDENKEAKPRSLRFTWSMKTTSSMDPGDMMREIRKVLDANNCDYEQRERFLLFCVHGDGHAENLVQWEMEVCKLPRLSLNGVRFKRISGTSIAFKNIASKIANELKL

Block 1
SMILES: O=C(N[C@H]1CCCCC/C=C\C2C[C@@]2(C(=O)O)NC(=O)[C@@H]2C[C@@H](Oc3ccncc3)CN2C1=O)OC1CCCC1 (stereo partly drawn)
Technique: competition with immobilised ligand
Tested at: 1 µM
Quantity: remaining binding
eIF-2-alpha kinase GCN2, C-terminal kinase domain (EIF2AK4, Homo sapiens, UniProt Q9P2K8, S808G); binding: 100%
MKNK1 (Homo sapiens, UniProt Q9BUB5); binding: 79%
CSK (Homo sapiens, UniProt P41240); cell-free assay: 96%
WNK4 (Homo sapiens, UniProt Q96J92); binding: 100%
PRKD3 (Homo sapiens, UniProt O94806); binding: 82%
MAPK8 (Homo sapiens, UniProt P45983); binding: 86%
SRC (Homo sapiens, UniProt P12931); binding: 100%
MARK3 (Homo sapiens, UniProt P27448); binding: 100%
Tyrosine-protein kinase ABL1, non-phosphorylated (ABL1, Homo sapiens, UniProt P00519, F317L); binding: 100%
STK35 (Homo sapiens, UniProt Q8TDR2); binding: 100%
STK33 (Homo sapiens, UniProt Q9BYT3); binding: 89%
Tyrosine-protein kinase ABL1, phosphorylated (ABL1, Homo sapiens, UniProt P00519, E255K); binding: 80%

Block 2
Partner: Histone H2B type 1-C/E/F/G/I (Homo sapiens, UniProt P62807)
Technique: cross-linking MS
Notes: hits only
Quantity: interaction screen
HMGA1 (Homo sapiens, UniProt P17096): cross-linked
HMGB2 (Homo sapiens, UniProt P26583): cross-linked
H2AC11 (Homo sapiens, UniProt P0C0S8): cross-linked
H2BC5 (Homo sapiens, UniProt P58876): cross-linked
Histone H2A type 1-B/E (Homo sapiens, UniProt P04908): cross-linked

Block 3
Target: Centromere-binding protein 1, full length, His-tagged (CBF1, Saccharomyces cerevisiae, UniProt P17106, residues 1-351)
UniProt P17106, sequence (whole entry, looked up): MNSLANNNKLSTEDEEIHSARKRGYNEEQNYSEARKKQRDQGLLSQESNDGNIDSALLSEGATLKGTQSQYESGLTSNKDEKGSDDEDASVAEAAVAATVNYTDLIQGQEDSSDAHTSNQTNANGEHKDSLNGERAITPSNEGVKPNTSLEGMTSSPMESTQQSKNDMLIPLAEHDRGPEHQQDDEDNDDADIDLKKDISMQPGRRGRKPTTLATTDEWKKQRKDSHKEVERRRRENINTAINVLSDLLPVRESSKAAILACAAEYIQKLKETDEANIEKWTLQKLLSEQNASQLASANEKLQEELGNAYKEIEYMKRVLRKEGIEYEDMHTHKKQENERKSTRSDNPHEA
Technique: competition protein-binding microarray
Form: double-stranded DNA, one strand shown
Matrix: in vitro
Tested at: 2 µM
Notes: whole 60-bp probe, lowest competitor level
With: Pho4 competitor, 0.05 µM
Direction: higher = stronger binding
Quantity: fluorescence intensity
Constant ends, left off below: … GTCTTGATTCGCTTGACGCTGCTG
TTCCATCTGGGGACCCACATGTGTGGGTTTGGATTG: 66.7 a.u.
TGCGCAACAACTTGTCACTCGACTTTATGTCTAGAA: 76.3 a.u.
CATACCCAACCTTGTGCTGTGGGTGAAGATATTTGT: 74.4 a.u.
TTGGCAACTCTCTCCGTCATGACAACTACTCCGCGG: 59.8 a.u.
GTCCCCTAAGTTCTTCACGTGTTCCCTTCTCATCGC: 1090 a.u.
CAATTTTGTGGTCGGATCGTGCTTTTGCCACCCGCG: 78 a.u.
CTTCTGTAAATTTGCCCAGTGGGTGGACGCGCCCCG: 81.2 a.u.
CCAAGGGATTACCATCACGTAAGACTCTTGATCCTT: 67.3 a.u.

Further values, each from its own experiment
FHL1 DNA-binding domain: Pre-rRNA-processing protein FHL1, DNA-binding domain (FHL1, Saccharomyces cerevisiae, UniProt P39521, residues 401-638)
UniProt P39521, sequence (401-638, looked up): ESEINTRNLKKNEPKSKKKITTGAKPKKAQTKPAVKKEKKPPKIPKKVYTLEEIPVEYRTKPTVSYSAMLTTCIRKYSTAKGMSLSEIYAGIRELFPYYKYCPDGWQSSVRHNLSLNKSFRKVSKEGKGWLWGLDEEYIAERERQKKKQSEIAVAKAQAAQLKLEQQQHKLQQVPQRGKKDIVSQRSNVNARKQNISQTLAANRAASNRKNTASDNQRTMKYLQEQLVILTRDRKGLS
GACGCG — relative binding free energy (FHL1 DNA-binding domain; SELEX-seq; double-stranded DNA, one strand shown, in vitro; not given, 6-bp core, flanks averaged; baseline: best-binding core, lower = stronger binding): 0.194 ddG/RT
CC(NC(=O)C(OC(=O)C(C)NC(=O)OC(C)(C)C)C(C)C)C(=O)OC(C(=O)O)C(C)C (stereo not drawn) — nuclei count (mouse MPNST tumor cells; high-content nuclear imaging, item: cell number; 10 µM, 12 h, mean of 2 replicates; baseline: plate mean, higher = more cells): -0.785 z-score
AACGCA — relative binding free energy (FHL1 DNA-binding domain; SELEX-seq; double-stranded DNA, one strand shown, in vitro; not given, 6-bp core, flanks averaged; baseline: best-binding core, lower = stronger binding): 0.209 ddG/RT
CC(=O)c1c(-c2cccc3ccccc23)nc2n(CCN3CCCCC3)c3ccccc3n12 — remaining compound (human, microsomes or S9; 2 µM, 0.5 h): 0.106%
CCn1c(=O)[nH]c2ccccc21 — nuclei count (mouse MPNST tumor cells; high-content nuclear imaging, item: cell number; 10 µM, 12 h, mean of 2 replicates; baseline: plate mean, higher = more cells): 0.637 z-score

For quick reference, copied from above (block 1):
SRC (Homo sapiens, UniProt P12931); binding: 100%
CSK (Homo sapiens, UniProt P41240); cell-free assay: 96%
MAPK8 (Homo sapiens, UniProt P45983); binding: 86%
MKNK1 (Homo sapiens, UniProt Q9BUB5); binding: 79%
PRKD3 (Homo sapiens, UniProt O94806); binding: 82%
